Results from different studies.
Compare with care: the assays were run in different laboratories. ± gives the spread as reported.
USP7: Ubiquitin carboxyl-terminal hydrolase 7 (USP7, Homo sapiens, UniProt Q93009)
UniProt Q93009, sequence (whole entry, looked up): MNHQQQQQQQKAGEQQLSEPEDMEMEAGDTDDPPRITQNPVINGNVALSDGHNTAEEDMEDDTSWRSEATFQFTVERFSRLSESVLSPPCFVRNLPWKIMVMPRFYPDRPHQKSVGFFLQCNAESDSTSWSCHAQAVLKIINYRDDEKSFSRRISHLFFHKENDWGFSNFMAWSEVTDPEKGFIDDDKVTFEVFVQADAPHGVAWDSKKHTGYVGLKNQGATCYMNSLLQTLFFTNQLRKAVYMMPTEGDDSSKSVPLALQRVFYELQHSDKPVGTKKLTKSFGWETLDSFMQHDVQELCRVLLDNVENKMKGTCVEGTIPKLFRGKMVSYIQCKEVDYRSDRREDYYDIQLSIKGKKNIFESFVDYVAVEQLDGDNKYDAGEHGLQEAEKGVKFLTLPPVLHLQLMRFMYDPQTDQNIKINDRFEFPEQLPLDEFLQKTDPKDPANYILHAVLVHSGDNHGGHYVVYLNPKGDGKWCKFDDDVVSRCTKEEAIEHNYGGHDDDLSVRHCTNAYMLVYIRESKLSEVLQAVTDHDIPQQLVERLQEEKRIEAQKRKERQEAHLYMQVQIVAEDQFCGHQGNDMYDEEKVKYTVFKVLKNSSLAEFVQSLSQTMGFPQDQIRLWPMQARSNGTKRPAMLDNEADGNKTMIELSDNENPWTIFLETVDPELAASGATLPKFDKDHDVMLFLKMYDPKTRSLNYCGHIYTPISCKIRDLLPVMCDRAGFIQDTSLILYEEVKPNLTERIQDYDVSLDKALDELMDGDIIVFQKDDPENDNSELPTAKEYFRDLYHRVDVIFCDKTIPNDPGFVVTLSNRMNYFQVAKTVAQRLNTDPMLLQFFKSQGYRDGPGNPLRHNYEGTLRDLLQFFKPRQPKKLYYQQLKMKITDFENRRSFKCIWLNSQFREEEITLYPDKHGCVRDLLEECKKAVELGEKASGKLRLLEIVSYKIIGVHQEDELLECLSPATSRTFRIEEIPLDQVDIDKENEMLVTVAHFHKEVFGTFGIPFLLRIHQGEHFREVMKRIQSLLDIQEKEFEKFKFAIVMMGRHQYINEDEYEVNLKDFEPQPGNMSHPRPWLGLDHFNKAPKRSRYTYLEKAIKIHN
RIPK2: Receptor-interacting serine/threonine-protein kinase 2 (RIPK2, Homo sapiens, UniProt O43353)
UniProt O43353, sequence (whole entry, looked up): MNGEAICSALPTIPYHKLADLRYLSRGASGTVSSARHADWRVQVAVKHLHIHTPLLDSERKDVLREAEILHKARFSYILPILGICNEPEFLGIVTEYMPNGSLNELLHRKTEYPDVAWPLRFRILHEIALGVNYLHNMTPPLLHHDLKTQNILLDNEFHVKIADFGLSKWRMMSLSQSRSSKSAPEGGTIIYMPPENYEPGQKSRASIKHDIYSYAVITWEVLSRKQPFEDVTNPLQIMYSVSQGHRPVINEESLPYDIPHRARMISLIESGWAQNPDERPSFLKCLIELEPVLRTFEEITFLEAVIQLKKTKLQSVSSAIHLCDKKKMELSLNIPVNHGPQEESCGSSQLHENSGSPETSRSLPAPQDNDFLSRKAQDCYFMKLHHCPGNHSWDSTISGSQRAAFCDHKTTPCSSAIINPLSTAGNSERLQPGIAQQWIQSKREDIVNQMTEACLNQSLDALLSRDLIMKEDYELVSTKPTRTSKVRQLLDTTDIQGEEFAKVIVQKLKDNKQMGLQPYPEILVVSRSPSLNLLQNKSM
ABCG2: Broad substrate specificity ATP-binding cassette transporter ABCG2 (ABCG2, Homo sapiens, UniProt Q9UNQ0)
UniProt Q9UNQ0, sequence (whole entry, looked up): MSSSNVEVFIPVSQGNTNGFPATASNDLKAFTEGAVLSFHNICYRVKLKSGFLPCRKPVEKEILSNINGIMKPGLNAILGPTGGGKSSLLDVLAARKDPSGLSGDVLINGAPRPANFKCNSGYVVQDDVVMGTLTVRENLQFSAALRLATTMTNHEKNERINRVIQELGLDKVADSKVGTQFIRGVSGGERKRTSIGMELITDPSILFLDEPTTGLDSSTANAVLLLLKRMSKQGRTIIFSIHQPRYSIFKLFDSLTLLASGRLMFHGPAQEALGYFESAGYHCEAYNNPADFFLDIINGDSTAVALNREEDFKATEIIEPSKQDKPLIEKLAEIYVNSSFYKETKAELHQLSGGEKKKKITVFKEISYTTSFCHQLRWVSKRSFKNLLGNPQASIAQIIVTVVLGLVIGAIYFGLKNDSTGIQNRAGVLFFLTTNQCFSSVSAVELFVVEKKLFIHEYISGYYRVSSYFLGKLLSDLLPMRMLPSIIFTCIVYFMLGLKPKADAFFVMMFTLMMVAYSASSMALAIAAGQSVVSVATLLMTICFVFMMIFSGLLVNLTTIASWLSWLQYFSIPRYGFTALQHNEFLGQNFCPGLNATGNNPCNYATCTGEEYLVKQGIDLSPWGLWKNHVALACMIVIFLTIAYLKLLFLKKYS
UniProt P53779, sequence (whole entry, unmodified, looked up): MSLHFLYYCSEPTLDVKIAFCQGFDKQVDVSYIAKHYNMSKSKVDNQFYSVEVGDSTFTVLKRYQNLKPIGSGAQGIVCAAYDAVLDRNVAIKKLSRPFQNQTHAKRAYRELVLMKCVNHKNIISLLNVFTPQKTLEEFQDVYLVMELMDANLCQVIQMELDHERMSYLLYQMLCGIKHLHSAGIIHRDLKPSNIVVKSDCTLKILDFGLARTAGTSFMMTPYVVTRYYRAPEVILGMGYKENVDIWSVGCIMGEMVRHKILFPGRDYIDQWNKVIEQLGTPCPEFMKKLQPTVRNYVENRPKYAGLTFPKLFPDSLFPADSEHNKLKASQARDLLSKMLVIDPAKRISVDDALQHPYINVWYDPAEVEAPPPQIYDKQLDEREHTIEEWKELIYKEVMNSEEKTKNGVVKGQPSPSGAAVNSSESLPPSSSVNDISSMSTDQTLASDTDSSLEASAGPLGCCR
UniProt Q9Y6K9, sequence (whole entry, looked up): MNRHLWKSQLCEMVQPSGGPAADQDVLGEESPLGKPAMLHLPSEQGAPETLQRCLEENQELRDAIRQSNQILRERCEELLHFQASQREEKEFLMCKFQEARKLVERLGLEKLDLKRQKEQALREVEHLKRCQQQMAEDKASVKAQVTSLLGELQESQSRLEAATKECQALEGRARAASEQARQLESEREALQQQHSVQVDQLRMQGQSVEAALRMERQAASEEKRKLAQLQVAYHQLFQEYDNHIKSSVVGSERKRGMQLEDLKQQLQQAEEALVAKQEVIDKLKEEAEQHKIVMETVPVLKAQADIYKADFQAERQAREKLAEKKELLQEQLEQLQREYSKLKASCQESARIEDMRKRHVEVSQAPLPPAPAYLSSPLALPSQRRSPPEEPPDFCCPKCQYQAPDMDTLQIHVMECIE
UniProt P38158, sequence (whole entry, looked up): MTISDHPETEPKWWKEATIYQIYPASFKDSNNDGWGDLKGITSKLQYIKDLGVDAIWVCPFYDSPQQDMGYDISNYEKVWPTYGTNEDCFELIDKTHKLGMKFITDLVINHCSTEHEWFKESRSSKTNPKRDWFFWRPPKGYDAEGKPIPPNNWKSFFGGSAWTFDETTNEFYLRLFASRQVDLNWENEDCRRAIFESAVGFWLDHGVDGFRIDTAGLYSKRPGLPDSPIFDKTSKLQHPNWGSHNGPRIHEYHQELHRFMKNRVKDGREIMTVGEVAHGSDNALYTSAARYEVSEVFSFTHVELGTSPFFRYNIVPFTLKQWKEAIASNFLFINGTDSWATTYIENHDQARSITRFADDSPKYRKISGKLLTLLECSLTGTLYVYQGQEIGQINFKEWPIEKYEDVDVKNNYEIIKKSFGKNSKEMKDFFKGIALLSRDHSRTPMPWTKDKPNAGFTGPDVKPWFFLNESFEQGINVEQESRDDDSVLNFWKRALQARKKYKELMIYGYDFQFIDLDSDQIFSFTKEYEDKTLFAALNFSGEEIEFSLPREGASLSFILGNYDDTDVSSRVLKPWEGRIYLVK
UniProt Q9Y2K7, sequence (whole entry, looked up): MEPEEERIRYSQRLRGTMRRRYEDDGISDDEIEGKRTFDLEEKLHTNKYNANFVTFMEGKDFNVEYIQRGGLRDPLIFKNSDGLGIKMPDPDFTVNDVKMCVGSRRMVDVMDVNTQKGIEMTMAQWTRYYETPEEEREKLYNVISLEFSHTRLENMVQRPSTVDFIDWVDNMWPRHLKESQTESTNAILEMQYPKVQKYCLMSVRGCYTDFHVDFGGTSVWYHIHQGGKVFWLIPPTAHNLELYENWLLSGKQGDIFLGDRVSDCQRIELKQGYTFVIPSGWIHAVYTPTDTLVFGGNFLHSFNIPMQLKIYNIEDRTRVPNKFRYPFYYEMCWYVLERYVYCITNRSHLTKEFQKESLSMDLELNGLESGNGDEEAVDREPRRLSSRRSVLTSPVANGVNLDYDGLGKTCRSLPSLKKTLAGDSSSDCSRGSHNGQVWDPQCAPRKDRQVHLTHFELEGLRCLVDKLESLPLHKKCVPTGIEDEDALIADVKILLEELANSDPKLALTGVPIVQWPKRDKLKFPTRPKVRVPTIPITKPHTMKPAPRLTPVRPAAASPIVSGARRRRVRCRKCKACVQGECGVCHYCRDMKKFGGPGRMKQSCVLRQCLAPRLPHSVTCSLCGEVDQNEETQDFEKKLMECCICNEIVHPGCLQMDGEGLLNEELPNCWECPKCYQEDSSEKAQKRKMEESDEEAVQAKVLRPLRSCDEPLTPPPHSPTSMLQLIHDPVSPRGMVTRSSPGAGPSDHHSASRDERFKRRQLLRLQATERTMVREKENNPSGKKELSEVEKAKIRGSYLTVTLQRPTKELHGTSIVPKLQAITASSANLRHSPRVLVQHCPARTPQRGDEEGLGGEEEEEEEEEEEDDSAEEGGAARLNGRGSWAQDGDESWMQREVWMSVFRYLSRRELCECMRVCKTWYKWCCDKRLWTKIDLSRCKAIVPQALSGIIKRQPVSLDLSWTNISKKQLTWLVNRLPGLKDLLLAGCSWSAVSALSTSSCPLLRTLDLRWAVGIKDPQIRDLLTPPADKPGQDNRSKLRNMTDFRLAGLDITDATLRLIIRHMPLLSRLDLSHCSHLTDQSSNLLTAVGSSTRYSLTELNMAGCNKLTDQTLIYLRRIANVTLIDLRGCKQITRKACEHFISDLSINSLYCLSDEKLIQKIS

The IC50 of `CCNC(=O)[C@H]1O[C@@H](n2cnc3c(NCCCCCNC(=O)CCCCCNC(=O)COc4ccc(/C=C/C5=[N+]6C(=Cc7ccc(-c8cccs8)n7[B-]6(F)F)C=C5)cc4)ncnc32)[C@H](O)[C@@H]1O` is reported as 10.7 nM (ADORA1 (Homo sapiens, UniProt P30542); CRE reporter gene, agonist; CHO-A1; Gi-mediated inhibition, together with: forskolin).
The IC50 of `O=c1c(-c2nc3ccccc3s2)cc2c(n1NS(=O)(=O)c1ccc(Cl)cc1)CCCCCC2` is reported as 20700 nM (USP7; enzyme activity, inhibitor, fluorescence).
The IC50 of `Oc1ccc(C=Cc2cc(O)cc(O)c2)cc1` is reported as 7200 nM (ALOX5 (Homo sapiens, UniProt P09917); enzyme activity, inhibitor, HPLC).
The IC50 of `N=C(N)NCCC[C@@H]1NC(=O)[C@H](Cc2c[nH]c3ccccc23)NC(=O)[C@H](CCCNC(=N)N)NC(=O)[C@H](Cc2c[nH]c3ccccc23)NC(=O)[C@H](CCCNC(=N)N)NC(=O)[C@H](Cc2c[nH]c3ccccc23)NC(=O)[C@H](CCCNC(=N)N)NC(=O)[C@H](Cc2c[nH]c3ccccc23)NC(=O)[C@H](CCCNC(=N)N)NC(=O)[C@H](Cc2c[nH]c3ccccc23)NC(=O)[C@H](CCCNC(=N)N)NC(=O)[C@H](Cc2c[nH]c3ccccc23)NC(=O)[C@H](CCCNC(=N)N)NC(=O)[C@H](Cc2c[nH]c3ccccc23)NC1=O` is reported as 770 nM (BRAF (Homo sapiens, UniProt P15056); enzyme activity, inhibitor).
The IC50 of `CC1(C)CC(=O)C=C(Sc2nc3cc(Cl)ccc3s2)C1` is reported as over 200000 nM (KDM2A (Homo sapiens, UniProt Q9Y2K7); ligand displacement, FP).
The IC50 of `Cc1cc(/C=C2\SC(=S)NC2=O)cc(C)c1O` is reported as 69 nM (PIK3CA (Homo sapiens, UniProt P42336); enzyme activity, inhibitor, radiometric).
The IC50 of `CC[C@H](C)[C@@H]1NC(=O)[C@H](C)NC(=O)CNC(=O)c2cc3cc(c2)C(=O)NC[C@@H](C(=O)NCCC(=O)NCCC(=O)N[C@@H](CCCCN)C(N)=O)NC(=O)[C@H](CCCNC(=N)N)NC(=O)[C@@H](CCCNC(=N)N)NC(=O)[C@H](CCCNC(=N)N)NC(=O)[C@H](Cc2ccc4ccccc4c2)NC(=O)[C@H](Cc2ccccc2)NC(=O)[C@H](CNC3=O)NC(=O)[C@H](C)NC(=O)[C@H](Cc2ccc(O)cc2)NC1=O` is reported as 3000 ± 300 nM (NF-kappa-B essential modulator, with IKK-beta (IKBKG, Homo sapiens, UniProt Q9Y6K9); inhibitor, HTRF).
For `CCC(=O)NC1CC=C(c2cc3c(Nc4ccc5scnc5c4)ncnc3s2)CC1` (centres unmarked), the IC50 was 14 nM (RIPK2; enzyme activity, inhibitor).
For `O=C1NCc2c1c1c3cc(Cl)ccc3[nH]c1c1[nH]c3ccc(Cl)cc3c21`, the IC50 was 75000 nM (ABCG2; Hoechst accumulation, inhibitor; MDCK II transfected with ABCG2).
With `C=CC(=O)N1CCC(c2ccccc2)CC1` the IC50 was over 200000 nM (Fosb/Jund, ΔFosB isoform (Mus musculus, UniProt P13346+P15066); ΔFOSB/JUND DNA binding, fluorescence polarization; 15 min, together with: TMR-cdk5 oligonucleotide).
`Cc1cc(O)c(C=O)c2c1C(=O)Oc1c(CO)c(O)c3c(c1O2)C(O)OC3=O` (centres unmarked) gave an IC50 of 253 nM (AKR1B1 (Homo sapiens, UniProt P15121); enzyme activity, inhibitor).
The IC50 of `O=c1c2ccccc2on1-c1ccccc1` is reported as over 10000 nM (HDAC4 (Homo sapiens, UniProt P56524); enzyme activity, inhibitor).
`CCC=CCC=CCC=CCC=CCC=CCCCC(=O)Oc1cc(C(=O)O[C@@H]2Cc3c(O)cc(O)cc3O[C@@H]2c2cc(OC(=O)CCCC=CCC=CCC=CCC=CCC=CCC)c(O)c(OC(=O)CCCC=CCC=CCC=CCC=CCC=CCC)c2)cc(OC(=O)CCCC=CCC=CCC=CCC=CCC=CCC)c1O` gave an IC50 of 6 nM (Genome polyprotein, protease (Hepatitis C virus genotype 1a, UniProt P27958); enzyme activity, inhibitor, fluorescence).
`CC(C)C[C@H](NC(=O)[C@H](CC(N)=O)NC(=O)[C@H](CC(C)C)NC(=O)[C@@H](NC(=O)[C@@H](NC(=O)[C@@H]1CCCN1C(=O)[C@H](CCCNC(=N)N)NC(=O)[C@H](CCCCN)NC(=O)[C@@H]1CCCN1C(=O)[C@H](CCCNC(=N)N)NC(=O)[C@H](CCCNC(=N)N)NC(=O)[C@H](CCCNC(=N)N)NC(=O)[C@H](CCCNC(=N)N)NC(=O)[C@H](CCC(N)=O)NC(=O)[C@H](CCCNC(=N)N)NC(=O)[C@H](CCCNC(=N)N)NC(=O)[C@H](CCCCN)NC(=O)[C@H](CCCCN)NC(=O)[C@H](CCCNC(=N)N)NC(=O)CNC(=O)[C@@H](N)Cc1ccc(O)cc1)[C@@H](C)O)[C@@H](C)O)C(=O)N[C@@H](Cc1ccccc1)C(N)=O` has an IC50 of 1900 ± 180 nM (Mitogen-activated protein kinase 10, isoform alpha-2 (MAPK10, Homo sapiens, UniProt P53779); enzyme activity, inhibitor).
`COc1cc(O)cc2cc3c(c(O)c12)C(=O)CC(C)(O)O3` (centres unmarked) gave an IC50 of over 100000 nM (Beta-secretase 1 (BACE1, Homo sapiens, UniProt P56817); enzyme activity, inhibitor, FRET).
The IC50 of `Cc1nc(/N=N/c2cc3c(S(=O)(=O)O)cc([N+](=O)[O-])cc3cc2S(=O)(=O)O)c(COP(=O)(O)O)c(C=O)c1O` is reported as 21900 nM (Neutrophil elastase (ELANE, Homo sapiens, UniProt P08246); enzyme activity, inhibitor, absorbance; pH 7.4).
With `Cc1nc(NC(=O)N2CCCC2)sc1-c1csc(C(C)(C)C)n1` the IC50 was over 1000 nM (PIK3CD (Homo sapiens, UniProt O00329); enzyme activity, inhibitor, TR-FRET).
With `N=C(N)NCCC[C@H](NC(=O)[C@H](CC(=O)O)NC(=O)[C@@H]1CSCCC(=O)NCC(=O)N[C@@H](Cc2c[nH]cn2)C(=O)N[C@H](Cc2ccccc2)C(=O)N[C@@H](CCCNC(=N)N)C(=O)N[C@@H](Cc2c[nH]c3ccccc23)C(=O)N1)C(=O)N[C@@H](Cc1ccccc1)C(=O)NCC(N)=O` the IC50 was 76 nM (MC3R (Homo sapiens, UniProt P41968); ligand displacement, radioligand).
For `Cc1cc(N2CC[C@@](C#N)(C3(C)CC3)C2=O)cc(C(=O)NCc2cc(F)cc(-c3cnn(C)c3)c2)n1`, the IC50 was 76 nM (EPRS1 (Homo sapiens, UniProt P07814); enzyme activity, inhibitor, absorbance).
`CC(C)C(=O)N1CC=C(c2cc3c(Nc4cc5ncsc5cc4F)ncnc3s2)CC1` has an IC50 of 6 nM (RIPK2; enzyme activity, inhibitor).
For `C=CC1C(OC2OC(CO)C(O)C(O)C2O)OC=C(C(=O)OC)C1CC(OC)OCC1OC(OC2OC=C(C(=O)O)C3CCC(C)C23)C(O)C(O)C1O` (centres unmarked), the IC50 was over 100000 nM (PTPN1 (Homo sapiens, UniProt P18031); enzyme activity, inhibitor, absorbance).
The IC50 of `Cc1ccc(S(=O)(=O)/C=C/C#N)cc1` is reported as under 200 nM (USP7; deubiquitinase activity, inhibitor, MALDI-TOF DUB; 60 min, 30 °C, 35 min pre-incubation, together with: diubiquitin substrate).
With `CC1OC(Oc2c(-c3ccc(O)cc3)oc3cc(O)cc(O)c3c2=O)C(OC(=O)C=Cc2ccc(O)cc2)C(O)C1OC(=O)C=Cc1ccc(O)cc1` (centres unmarked) the IC50 was over 1000 nM (CCR7 (Homo sapiens, UniProt P32248); calcium flux, antagonist; 293FT GCaMP6 transfected).
The IC50 of `O=C1C2=C(Nc3ccccc3SC2c2ccc(F)cc2)c2ccccc21` (racemic) is reported as 14 ± 3.9 nM (MT-CYB, bc1 complex (Plasmodium falciparum, UniProt Q02768); enzyme activity, inhibitor; purified mitochondrial fractions).
For `O=C(Nc1ccc(-c2nc(-c3ccccc3)cs2)cc1)C1CCN(Cc2ccc(F)cc2F)CC1`, the IC50 was over 10000 nM (Ephx2 (Mus musculus, UniProt P34914); enzyme activity, inhibitor, fluorescence; pH 7.4, with preincubation).
`CCCC[C@H]1C(=O)NCC(=O)N[C@@H](CC(=O)O)C(=O)N[C@@H](C(C)C)C(=O)N(C)[C@@H](Cc2ccccc2)C(=O)N[C@@H](Cc2ccc(O)cc2)C(=O)N(C)CC(=O)N[C@@H](Cc2c[nH]c3ccccc23)C(=O)N[C@@H](Cc2ccc(O)cc2)C(=O)N[C@@H](CC(C)C)C(=O)N[C@H](C(=O)NCC(N)=O)CSCC(=O)N[C@@H](Cc2ccccc2)C(=O)N(C)[C@@H](Cc2ccccc2)C(=O)N1C` has an IC50 of 133 ± 1.23 nM (CD274 (Homo sapiens, UniProt Q9NZQ7); binding, inhibitor, HTRF).
The IC50 of `COc1cc(OC)c(OC)cc1/C=C/C(=O)c1ccc2ccccc2c1` is reported as 230 nM (ABCG2; transporter efflux, inhibitor, flow cytometry; HEK293; 30 min).
For `CC(C)CNC(=O)[C@H](Cc1ccccc1)NC(=O)[C@H](Cc1c[nH]c2ccccc12)NC(=O)[C@H](CCCNC(=N)N)NC(=O)OCC(C)C`, the IC50 was 300000 ± 25000 nM (Protein Mdm4, with p53 (MDM4, Homo sapiens, UniProt O15151); MDMX-p53 binding, inhibitor, competitive ELISA).
With `COc1ccc(C(=O)/C=C(\O)C(F)(F)C(F)(F)F)cn1` the IC50 was 990 ± 80 nM (Formate-nitrite transporter (Plasmodium knowlesi, UniProt A0A679KXN5); L-lactate transport, inhibitor; yeast; pH 6.8, together with: 14C-L-lactate 1 mM).
With `O=c1c2c(O)cc(O)cc2oc2oc3cc(O)ccc3c12` the IC50 was 53400 ± 1200 nM (alpha-glucosidase; inhibitor).
With `CCOC(=O)C1=C(C)NC2=C(C(=O)CC(C)(C)C2)C1c1ccc(OCC(=O)NN=Cc2cccc([N+](=O)[O-])c2)cc1OCC(=O)NN=Cc1cccc([N+](=O)[O-])c1` (centres unmarked) the IC50 was 17100 ± 390 nM (MAL32 (Saccharomyces cerevisiae, UniProt P38158); inhibitor; pH 6.8, 37 °C, together with: p-nitrophenyl α-D-glucopyranoside 0.7 mM).
The IC50 of `Cc1cc(NC(=O)c2cccc(-n3cc(NC(=O)Nc4ccccc4)cn3)c2)ccn1` is reported as 1300 ± 443 nM (Mitogen-activated protein kinase 10, isoform alpha-1 (MAPK10, Homo sapiens, UniProt P53779, L144I); enzyme activity, inhibitor, HTRF; together with: 1.25 µM ATP).
